Measured values collected from several papers.
Every numbered part comes from another study and shows a few of its results, in no order. “And” joins repeats or separate records; there may be more than shown.
Sequence of UniProt O95382 (whole entry, looked up): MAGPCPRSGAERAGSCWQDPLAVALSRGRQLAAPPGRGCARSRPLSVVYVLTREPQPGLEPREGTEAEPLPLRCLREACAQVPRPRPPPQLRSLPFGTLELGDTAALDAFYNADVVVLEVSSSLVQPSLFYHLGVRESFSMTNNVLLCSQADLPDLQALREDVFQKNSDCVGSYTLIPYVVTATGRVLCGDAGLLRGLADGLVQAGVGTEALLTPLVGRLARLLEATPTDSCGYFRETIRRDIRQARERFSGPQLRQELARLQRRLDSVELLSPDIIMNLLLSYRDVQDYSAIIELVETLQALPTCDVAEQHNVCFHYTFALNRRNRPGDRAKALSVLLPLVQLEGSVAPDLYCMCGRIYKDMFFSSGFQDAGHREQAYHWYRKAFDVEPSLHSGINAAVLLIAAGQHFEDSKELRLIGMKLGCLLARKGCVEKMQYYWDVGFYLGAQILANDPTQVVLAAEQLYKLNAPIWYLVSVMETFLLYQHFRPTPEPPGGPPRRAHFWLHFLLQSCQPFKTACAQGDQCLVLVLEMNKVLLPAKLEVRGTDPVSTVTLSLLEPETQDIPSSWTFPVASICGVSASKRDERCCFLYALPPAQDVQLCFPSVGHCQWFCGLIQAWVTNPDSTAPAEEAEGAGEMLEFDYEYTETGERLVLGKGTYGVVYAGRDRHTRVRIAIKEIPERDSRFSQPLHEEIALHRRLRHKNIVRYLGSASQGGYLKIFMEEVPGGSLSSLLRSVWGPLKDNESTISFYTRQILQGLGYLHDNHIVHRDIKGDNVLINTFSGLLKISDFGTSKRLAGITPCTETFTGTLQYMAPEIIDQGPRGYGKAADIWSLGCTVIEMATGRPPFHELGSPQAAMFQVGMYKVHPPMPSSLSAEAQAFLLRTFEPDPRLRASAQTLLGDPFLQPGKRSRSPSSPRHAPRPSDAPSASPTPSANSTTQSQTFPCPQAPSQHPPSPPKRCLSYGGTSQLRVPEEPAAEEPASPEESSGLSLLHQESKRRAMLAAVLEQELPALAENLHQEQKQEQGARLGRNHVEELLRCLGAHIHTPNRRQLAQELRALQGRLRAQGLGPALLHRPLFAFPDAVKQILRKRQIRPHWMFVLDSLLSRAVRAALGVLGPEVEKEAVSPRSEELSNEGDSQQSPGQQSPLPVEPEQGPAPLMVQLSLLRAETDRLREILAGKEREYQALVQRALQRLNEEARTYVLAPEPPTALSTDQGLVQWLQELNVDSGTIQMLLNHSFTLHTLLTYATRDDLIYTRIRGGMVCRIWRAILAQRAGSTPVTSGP
Sequence of UniProt O75676 (whole entry, looked up): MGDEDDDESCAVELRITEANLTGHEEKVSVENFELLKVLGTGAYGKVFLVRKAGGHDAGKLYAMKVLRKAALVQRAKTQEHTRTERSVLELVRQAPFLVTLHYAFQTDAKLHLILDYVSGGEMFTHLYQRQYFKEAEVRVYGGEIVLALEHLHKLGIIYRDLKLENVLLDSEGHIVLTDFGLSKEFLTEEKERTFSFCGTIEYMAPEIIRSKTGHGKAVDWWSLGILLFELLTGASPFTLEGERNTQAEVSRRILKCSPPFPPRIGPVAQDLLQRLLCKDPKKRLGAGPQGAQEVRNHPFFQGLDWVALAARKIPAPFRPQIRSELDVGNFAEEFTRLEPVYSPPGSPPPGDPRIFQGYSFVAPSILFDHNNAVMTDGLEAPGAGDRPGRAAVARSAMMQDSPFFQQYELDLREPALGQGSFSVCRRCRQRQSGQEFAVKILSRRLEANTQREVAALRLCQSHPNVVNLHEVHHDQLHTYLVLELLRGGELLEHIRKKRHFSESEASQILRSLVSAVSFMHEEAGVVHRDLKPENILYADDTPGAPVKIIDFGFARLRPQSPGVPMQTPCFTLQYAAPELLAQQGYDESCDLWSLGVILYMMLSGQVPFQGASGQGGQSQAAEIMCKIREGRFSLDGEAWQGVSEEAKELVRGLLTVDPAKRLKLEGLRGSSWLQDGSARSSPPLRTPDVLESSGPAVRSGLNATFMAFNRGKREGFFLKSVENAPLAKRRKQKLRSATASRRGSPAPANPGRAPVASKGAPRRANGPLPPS
Sequence of UniProt Q6P3R8 (whole entry, looked up): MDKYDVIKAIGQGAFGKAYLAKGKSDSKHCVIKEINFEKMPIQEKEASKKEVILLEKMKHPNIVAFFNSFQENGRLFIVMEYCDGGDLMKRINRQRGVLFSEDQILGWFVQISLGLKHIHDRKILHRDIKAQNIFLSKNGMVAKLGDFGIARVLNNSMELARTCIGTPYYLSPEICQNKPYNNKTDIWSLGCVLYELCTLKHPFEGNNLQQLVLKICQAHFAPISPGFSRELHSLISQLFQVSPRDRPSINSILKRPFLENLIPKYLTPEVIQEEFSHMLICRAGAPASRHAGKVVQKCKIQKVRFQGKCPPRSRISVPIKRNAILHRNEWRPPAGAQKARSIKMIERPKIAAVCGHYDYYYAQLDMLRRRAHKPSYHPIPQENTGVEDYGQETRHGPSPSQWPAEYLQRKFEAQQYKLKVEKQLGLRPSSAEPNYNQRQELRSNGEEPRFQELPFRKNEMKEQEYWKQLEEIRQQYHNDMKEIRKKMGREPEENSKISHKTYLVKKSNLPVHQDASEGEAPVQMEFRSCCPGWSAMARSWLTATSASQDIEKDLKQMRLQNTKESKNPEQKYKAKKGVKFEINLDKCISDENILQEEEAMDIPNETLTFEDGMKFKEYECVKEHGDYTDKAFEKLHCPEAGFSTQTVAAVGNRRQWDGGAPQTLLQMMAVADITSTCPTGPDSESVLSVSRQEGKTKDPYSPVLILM
Sequence of UniProt Q86YV6 (whole entry, looked up): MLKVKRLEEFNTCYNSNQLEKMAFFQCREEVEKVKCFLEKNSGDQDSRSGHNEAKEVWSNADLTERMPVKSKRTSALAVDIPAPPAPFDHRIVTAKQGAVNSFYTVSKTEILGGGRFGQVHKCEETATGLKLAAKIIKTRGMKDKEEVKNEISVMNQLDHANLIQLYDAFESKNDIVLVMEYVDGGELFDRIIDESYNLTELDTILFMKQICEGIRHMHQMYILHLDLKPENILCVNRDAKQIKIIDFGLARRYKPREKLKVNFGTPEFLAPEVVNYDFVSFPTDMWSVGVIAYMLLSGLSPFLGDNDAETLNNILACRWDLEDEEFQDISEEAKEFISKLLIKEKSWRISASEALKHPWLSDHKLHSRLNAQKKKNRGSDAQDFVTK
Sequence of UniProt P45985 (whole entry, looked up): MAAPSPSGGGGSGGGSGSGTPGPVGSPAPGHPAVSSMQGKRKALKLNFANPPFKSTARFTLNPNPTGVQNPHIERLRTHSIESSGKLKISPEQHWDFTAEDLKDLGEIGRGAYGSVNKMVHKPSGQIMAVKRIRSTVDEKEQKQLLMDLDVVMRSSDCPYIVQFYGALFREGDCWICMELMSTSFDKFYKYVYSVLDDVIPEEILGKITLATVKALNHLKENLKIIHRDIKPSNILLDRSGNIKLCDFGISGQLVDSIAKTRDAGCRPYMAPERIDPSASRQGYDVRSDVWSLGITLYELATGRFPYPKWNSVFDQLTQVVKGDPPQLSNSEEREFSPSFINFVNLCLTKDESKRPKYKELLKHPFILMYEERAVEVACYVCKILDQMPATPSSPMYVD

Block 1 — tested at: 1 µM
Structure (SMILES): O=C(Nc1ccc(Oc2ccc(F)cc2)cc1)N1CCc2ncccc2[C@H]1c1ccc(F)cc1
target	effect on	technique	remaining binding
Mitogen-activated protein kinase kinase kinase 4 (MAP3K4, Homo sapiens, UniProt Q9Y6R4)	cell-free assay	competition with immobilised ligand	100%
Bone morphogenetic protein receptor type-1B (BMPR1B, Homo sapiens, UniProt O00238)	cell-free assay	competition with immobilised ligand	87%
Maternal embryonic leucine zipper kinase (MELK, Homo sapiens, UniProt Q14680)	cell-free assay	competition with immobilised ligand	78%
Serine/threonine-protein kinase 36 (STK36, Homo sapiens, UniProt Q9NRP7)	cell-free assay	competition with immobilised ligand	89%
Epidermal growth factor receptor (EGFR, Homo sapiens, UniProt P00533, del747-750/T751S)	cell-free assay	competition with immobilised ligand	74%
Ribosomal protein S6 kinase alpha-4, N-terminal kinase domain (RPS6KA4, Homo sapiens, UniProt O75676)	cell-free assay	competition with immobilised ligand	94%
Mitogen-activated protein kinase kinase kinase 1 (MAP3K1, Homo sapiens, UniProt Q13233)	cell-free assay	competition with immobilised ligand	87%
Serine/threonine-protein kinase SIK2 (SIK2, Homo sapiens, UniProt Q9H0K1)	cell-free assay	competition with immobilised ligand	100%
Serine/threonine-protein kinase 10 (STK10, Homo sapiens, UniProt O94804)	cell-free assay	competition with immobilised ligand	100%
Mitogen-activated protein kinase kinase kinase 6 (MAP3K6, Homo sapiens, UniProt O95382)	cell-free assay	competition with immobilised ligand	100%
BMP-2-inducible protein kinase (BMP2K, Homo sapiens, UniProt Q9NSY1)	cell-free assay	competition with immobilised ligand	94%
Myosin light chain kinase family member 4 (MYLK4, Homo sapiens, UniProt Q86YV6)	cell-free assay	competition with immobilised ligand	97%
Myosin light chain kinase 2, skeletal/cardiac muscle (MYLK2, Homo sapiens, UniProt Q9H1R3)	cell-free assay	competition with immobilised ligand	100%
Serine/threonine-protein kinase Nek5 (NEK5, Homo sapiens, UniProt Q6P3R8)	cell-free assay	competition with immobilised ligand	96%
AP2-associated protein kinase 1 (AAK1, Homo sapiens, UniProt Q2M2I8)	binding		95%
Serine/threonine-protein kinase SBK1 (SBK1, Homo sapiens, UniProt Q52WX2)	cell-free assay	competition with immobilised ligand	89%
Dual specificity mitogen-activated protein kinase kinase 4 (MAP2K4, Homo sapiens, UniProt P45985)	cell-free assay	competition with immobilised ligand	86%
Phosphatidylinositol 4,5-bisphosphate 3-kinase catalytic subunit alpha isoform (PIK3CA, Homo sapiens, UniProt P42336, E542K)	cell-free assay	competition with immobilised ligand	71%
Tyrosine-protein kinase ABL1, non-phosphorylated (ABL1, Homo sapiens, UniProt P00519, F317L)	cell-free assay	competition with immobilised ligand	70%
Hepatocyte growth factor receptor (MET, Homo sapiens, UniProt P08581, M1250T)	cell-free assay	competition with immobilised ligand	97%

Block 2 — species: human; sample: microsomes or S9; tested at: 2 µM; time: 0.5 h
Compound	remaining compound [%]
CCOC(=O)/C(=C/OC)n1c(COc2ccc(C)cc2C)noc1=O	1.03
COc1cc(C2c3c(-c4ccccc4)nn(C)c3C(=O)N2Cc2ccco2)cc(OC)c1O (stereo not shown)	9.03
Cc1ccc(NC(=O)Cn2nc3c(N4CC(C)CC(C)C4)nccn3c2=O)c(Cl)c1 (stereo not shown)	6.4
Cc1cc(-c2nnc(Cn3cnc4c3c(=O)n(C)c(=O)n4C)o2)c(C)o1	70
COc1nc(NCCc2c[nH]c3ccccc23)nc(Nc2ccc3[nH]ncc3c2)n1	22.9
O=C(CCC1N=C(O)N(Cc2ccco2)C1=O)Nc1ccc2cc[nH]c2c1 (stereo not shown)	97.4

Block 3 — action: antagonist
Target: Beta-1 adrenergic receptor (ADRB1, Homo sapiens, UniProt P08588)
Sequence of UniProt P08588 (whole entry, looked up): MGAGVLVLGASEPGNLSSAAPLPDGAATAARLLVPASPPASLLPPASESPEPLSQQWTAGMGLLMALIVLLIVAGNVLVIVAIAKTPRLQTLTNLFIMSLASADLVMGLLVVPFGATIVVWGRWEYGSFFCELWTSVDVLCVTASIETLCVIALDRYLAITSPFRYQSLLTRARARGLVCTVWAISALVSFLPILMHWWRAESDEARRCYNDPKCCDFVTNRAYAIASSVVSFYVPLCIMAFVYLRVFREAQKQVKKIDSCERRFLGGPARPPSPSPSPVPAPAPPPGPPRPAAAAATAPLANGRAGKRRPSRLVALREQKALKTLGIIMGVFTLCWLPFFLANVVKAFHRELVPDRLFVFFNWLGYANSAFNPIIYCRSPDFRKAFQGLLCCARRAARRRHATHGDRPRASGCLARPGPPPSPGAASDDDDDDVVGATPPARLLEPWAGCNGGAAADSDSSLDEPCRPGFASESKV
SMILES	IC50 [µM]
O=C(Nc1ccc(-c2csc3c(=O)cc(N4CCOCC4)oc23)cc1)c1ccc(F)c(F)c1Nc1ccc(I)cc1F	≥ 100
CCC(CC)C(=O)Nc1ccc([C@@H](O)[C@H]2COCC(=O)N2)cc1	≥ 100
CN(C)c1cccc(-c2ncc3c(n2)OCCN(Cc2ccccc2)C3=O)c1	≥ 100
CN(C)c1ccc(C(=C2C=CC(=[N+](C)C)C=C2)c2c(O)c(S(=O)(=O)[O-])cc3cc(S(=O)(=O)O)ccc23)cc1	≥ 100
COc1ccc(CN[C@H]2[C@H](O)[C@@H](N3CCN(c4ccccc4OC)CC3)[C@@H]3OC[C@H]2O3)cc1	≥ 100
COc1ccccc1C1CNC(=O)c2nc(CCN3CCC(C)CC3)[nH]c2C1 (stereo not shown)	≥ 100
OC(c1ccccc1)c1nc(Nc2ccc(F)cc2)n[nH]1 (stereo not shown)	≥ 100

Block 4 — Compound: C=CCc1ccc(O)c(-c2ccc(O)c(CC=C)c2)c1; effect on: chloride current
ANO1 del476-501: Anoctamin-1 (ANO1, Homo sapiens, UniProt Q5XXA6, del476-501)
Sequence of UniProt Q5XXA6 (whole entry, unmodified, looked up): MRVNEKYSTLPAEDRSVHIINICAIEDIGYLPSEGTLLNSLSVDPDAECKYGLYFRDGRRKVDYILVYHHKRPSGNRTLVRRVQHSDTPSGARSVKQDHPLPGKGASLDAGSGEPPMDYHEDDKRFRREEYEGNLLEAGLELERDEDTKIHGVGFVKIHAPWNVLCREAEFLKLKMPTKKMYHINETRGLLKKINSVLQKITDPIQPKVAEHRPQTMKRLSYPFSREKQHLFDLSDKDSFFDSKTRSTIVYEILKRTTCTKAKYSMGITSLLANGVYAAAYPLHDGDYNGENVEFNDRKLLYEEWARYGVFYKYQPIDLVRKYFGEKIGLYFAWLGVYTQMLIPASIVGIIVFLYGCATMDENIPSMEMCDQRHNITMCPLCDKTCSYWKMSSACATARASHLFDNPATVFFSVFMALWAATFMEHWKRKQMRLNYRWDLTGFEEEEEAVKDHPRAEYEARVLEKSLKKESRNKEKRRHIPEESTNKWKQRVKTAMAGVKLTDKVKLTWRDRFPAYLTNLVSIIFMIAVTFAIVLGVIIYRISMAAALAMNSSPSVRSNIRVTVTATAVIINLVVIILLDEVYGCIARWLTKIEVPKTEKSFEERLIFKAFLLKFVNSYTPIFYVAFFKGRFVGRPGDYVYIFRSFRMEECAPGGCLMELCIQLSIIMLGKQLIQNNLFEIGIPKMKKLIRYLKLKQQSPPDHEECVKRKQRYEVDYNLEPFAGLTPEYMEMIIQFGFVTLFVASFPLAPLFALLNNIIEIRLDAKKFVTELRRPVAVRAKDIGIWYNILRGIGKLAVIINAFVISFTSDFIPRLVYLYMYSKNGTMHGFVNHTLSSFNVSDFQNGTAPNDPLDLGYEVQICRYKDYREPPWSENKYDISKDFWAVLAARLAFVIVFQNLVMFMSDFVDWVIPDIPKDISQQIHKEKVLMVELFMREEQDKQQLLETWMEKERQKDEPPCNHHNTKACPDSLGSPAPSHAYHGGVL
target	action	technique	tested at	notes	with	normalized current
ANO1 del476-501		whole-cell voltage clamp	10 µM	wild type, concentration-response at -40 mV	4 µM Ca2+	-0.114
ANO1 del476-501		whole-cell voltage clamp	10 µM	wild type, concentration-response at 80 mV	4 µM Ca2+	0.227
Anoctamin-1 (ANO1, Homo sapiens, UniProt Q5XXA6, del476-501/E659A/K629A)		inside-out patch clamp	10 µM	membrane voltage 60 mV		0.496
Anoctamin-1 (ANO1, Homo sapiens, UniProt Q5XXA6, del476-501/R631A)	inhibitor	whole-cell voltage clamp	1 µM	R605A mutant		0.801
Anoctamin-1 (ANO1, Homo sapiens, UniProt Q5XXA6, del476-501/R541A)		inside-out patch clamp	10 µM	membrane voltage 60 mV		0.388

Further values, each from its own experiment
SMILES	tested on	assay	system	setting	endpoint	value
N#Cc1c(Oc2ccc(F)c(NC(=O)Cc3cccc(C(F)(F)F)c3)c2)ccc2nc(NC(=O)C3CC3)sc12	Receptor-interacting serine/threonine-protein kinase 3 (RIPK3, Homo sapiens, UniProt Q9Y572)	enzyme activity, inhibitor, ADP detection		1 µM, 1 h	inhibition	96.6%
CCCN1C(=O)[C@H](CC(C)C)NC(=O)[C@@H](N(C)C(=O)[C@H](CC2CCC2)NC(=O)[C@@H]2C[C@@H](F)CN2C(=O)[C@@](C)(O)C(F)(F)F)CCCCNC(=O)C2(CC2)NC(=O)[C@@H]1Cc1cc(Cl)ccc1Cl			mouse NCI-H1048 xenograft	iv, 100 mg/kg once daily, day 11	tumour volume	347 mm3 and 403 mm3 and 308 mm3 and 558 mm3 and 481 mm3 and 372 mm3 and 478 mm3 and 318 mm3

Repeated from above (block 1):
target	effect on	technique	remaining binding
BMP-2-inducible protein kinase (BMP2K, Homo sapiens, UniProt Q9NSY1)	cell-free assay	competition with immobilised ligand	94%
Myosin light chain kinase family member 4 (MYLK4, Homo sapiens, UniProt Q86YV6)	cell-free assay	competition with immobilised ligand	97%
Myosin light chain kinase 2, skeletal/cardiac muscle (MYLK2, Homo sapiens, UniProt Q9H1R3)	cell-free assay	competition with immobilised ligand	100%
